Assay results from different studies.
Protocols differ between the studies behind these lines. Values joined by “and” are separate records of one study, mostly repeats; a detail may differ. ± gives the spread as reported.
Genome polyprotein NS3 helicase domain: Genome polyprotein, NS3 helicase domain (Hepatitis C virus genotype 1b, UniProt Q9WMX2)
Chain of UniProt Q16774 (whole entry, unmodified, looked up): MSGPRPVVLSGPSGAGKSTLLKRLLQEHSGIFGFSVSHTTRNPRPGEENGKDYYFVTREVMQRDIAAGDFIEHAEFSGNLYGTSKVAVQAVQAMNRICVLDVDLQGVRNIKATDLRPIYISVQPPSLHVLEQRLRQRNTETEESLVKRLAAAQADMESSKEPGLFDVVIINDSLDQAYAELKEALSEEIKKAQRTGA
Chain of UniProt Q64663 (whole entry, unmodified, looked up): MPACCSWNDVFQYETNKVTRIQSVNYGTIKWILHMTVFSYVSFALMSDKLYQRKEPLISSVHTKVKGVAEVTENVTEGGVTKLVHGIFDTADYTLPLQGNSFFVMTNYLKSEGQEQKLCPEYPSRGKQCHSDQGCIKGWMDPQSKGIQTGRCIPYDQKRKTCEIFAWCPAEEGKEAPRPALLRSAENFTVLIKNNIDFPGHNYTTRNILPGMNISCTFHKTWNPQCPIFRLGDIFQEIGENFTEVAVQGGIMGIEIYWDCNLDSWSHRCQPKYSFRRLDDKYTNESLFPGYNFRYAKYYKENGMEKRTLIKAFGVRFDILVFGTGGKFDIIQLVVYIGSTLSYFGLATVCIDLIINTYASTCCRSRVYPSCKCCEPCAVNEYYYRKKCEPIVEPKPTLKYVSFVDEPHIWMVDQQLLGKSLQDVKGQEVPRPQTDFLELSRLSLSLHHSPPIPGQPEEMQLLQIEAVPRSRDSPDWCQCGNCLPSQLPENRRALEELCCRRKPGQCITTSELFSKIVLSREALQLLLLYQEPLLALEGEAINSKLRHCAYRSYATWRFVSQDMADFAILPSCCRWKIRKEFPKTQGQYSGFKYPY
Chain of UniProt A4D1P6 (whole entry, looked up): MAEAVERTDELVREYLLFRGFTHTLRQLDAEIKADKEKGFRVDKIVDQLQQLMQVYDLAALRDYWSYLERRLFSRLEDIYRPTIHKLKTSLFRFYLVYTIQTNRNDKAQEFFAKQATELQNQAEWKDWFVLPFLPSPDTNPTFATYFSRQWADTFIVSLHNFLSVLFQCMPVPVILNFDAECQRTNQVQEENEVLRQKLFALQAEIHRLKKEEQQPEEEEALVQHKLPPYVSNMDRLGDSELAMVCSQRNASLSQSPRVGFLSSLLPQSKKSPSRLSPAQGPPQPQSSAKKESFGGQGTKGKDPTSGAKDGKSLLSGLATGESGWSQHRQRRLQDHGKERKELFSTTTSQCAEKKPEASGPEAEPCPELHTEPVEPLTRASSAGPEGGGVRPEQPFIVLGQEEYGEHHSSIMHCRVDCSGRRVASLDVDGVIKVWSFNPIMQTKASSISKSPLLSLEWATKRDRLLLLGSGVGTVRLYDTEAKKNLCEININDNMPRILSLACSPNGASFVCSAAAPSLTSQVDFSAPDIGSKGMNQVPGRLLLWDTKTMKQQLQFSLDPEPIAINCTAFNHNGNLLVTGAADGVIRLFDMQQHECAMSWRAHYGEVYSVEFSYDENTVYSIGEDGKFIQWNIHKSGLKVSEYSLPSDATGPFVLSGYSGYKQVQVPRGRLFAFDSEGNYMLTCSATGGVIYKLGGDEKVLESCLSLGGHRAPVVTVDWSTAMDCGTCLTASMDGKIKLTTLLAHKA
Chain of UniProt Q92570 (whole entry, looked up): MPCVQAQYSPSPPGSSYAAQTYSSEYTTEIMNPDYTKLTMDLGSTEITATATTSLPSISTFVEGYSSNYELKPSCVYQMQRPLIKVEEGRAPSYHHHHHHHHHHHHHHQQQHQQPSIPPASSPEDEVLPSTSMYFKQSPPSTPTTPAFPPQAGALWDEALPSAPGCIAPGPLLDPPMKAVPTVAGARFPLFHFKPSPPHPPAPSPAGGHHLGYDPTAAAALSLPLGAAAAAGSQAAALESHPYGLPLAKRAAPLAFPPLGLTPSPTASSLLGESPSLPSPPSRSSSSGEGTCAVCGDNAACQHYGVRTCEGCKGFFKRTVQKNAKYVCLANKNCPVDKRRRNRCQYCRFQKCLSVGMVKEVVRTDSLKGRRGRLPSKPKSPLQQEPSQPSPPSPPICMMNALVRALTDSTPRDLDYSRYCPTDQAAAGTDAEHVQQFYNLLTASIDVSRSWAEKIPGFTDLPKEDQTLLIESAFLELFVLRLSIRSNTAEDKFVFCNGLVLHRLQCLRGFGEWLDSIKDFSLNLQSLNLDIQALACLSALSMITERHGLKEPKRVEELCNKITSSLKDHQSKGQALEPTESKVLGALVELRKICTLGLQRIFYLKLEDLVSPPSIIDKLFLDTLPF
Chain of UniProt Q9NWT6 (whole entry, unmodified, looked up): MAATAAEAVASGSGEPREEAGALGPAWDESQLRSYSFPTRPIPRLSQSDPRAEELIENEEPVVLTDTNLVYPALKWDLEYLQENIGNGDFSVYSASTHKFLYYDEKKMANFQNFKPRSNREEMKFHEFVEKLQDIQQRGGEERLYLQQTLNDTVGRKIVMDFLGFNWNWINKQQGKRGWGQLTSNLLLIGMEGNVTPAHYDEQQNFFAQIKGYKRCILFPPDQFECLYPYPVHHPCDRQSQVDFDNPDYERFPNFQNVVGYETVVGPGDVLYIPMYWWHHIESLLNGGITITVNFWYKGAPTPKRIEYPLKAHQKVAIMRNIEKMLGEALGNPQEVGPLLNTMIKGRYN
Chain of UniProt Q93015 (whole entry, looked up): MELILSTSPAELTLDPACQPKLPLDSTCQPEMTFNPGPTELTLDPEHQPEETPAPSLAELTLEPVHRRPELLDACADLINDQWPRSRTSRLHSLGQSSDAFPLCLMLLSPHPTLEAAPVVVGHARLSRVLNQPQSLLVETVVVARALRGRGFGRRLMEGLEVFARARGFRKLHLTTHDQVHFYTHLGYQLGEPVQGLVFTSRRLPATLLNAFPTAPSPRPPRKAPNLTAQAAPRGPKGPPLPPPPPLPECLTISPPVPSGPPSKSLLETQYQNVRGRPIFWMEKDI
Chain of UniProt P42262 (whole entry, looked up): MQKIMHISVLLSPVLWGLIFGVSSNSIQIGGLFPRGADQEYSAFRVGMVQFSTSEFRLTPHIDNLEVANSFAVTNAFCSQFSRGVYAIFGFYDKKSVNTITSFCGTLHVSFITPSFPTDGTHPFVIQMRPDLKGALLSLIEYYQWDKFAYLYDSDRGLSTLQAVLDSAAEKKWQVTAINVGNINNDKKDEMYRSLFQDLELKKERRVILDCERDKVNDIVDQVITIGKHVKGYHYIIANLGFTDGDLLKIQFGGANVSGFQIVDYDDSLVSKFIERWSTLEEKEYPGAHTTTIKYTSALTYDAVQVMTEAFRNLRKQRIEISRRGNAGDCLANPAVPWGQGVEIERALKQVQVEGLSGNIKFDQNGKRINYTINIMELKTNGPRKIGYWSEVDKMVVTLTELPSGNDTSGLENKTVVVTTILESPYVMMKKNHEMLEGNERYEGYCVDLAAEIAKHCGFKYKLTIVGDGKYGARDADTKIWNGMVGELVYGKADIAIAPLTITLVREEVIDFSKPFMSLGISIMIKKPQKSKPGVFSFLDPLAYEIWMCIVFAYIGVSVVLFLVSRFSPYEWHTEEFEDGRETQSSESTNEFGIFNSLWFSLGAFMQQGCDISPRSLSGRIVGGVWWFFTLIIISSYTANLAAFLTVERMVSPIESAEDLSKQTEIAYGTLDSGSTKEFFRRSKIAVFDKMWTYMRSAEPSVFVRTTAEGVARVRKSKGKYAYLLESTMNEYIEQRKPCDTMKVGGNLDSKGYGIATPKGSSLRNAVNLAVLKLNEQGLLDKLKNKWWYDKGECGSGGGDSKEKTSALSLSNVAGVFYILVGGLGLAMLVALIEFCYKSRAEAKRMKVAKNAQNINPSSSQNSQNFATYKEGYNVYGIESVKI
Chain of UniProt P35462 (whole entry, looked up): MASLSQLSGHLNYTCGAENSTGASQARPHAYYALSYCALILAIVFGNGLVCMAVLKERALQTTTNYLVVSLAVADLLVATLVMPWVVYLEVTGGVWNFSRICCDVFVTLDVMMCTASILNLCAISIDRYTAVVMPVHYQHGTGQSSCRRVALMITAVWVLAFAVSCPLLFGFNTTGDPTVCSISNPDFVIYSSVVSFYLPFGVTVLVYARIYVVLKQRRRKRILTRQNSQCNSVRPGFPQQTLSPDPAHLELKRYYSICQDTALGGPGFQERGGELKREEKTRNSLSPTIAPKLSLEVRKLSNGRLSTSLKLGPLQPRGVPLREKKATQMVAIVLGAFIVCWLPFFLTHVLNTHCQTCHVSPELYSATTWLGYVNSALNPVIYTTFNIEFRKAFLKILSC
Chain of UniProt P03372 (whole entry, looked up): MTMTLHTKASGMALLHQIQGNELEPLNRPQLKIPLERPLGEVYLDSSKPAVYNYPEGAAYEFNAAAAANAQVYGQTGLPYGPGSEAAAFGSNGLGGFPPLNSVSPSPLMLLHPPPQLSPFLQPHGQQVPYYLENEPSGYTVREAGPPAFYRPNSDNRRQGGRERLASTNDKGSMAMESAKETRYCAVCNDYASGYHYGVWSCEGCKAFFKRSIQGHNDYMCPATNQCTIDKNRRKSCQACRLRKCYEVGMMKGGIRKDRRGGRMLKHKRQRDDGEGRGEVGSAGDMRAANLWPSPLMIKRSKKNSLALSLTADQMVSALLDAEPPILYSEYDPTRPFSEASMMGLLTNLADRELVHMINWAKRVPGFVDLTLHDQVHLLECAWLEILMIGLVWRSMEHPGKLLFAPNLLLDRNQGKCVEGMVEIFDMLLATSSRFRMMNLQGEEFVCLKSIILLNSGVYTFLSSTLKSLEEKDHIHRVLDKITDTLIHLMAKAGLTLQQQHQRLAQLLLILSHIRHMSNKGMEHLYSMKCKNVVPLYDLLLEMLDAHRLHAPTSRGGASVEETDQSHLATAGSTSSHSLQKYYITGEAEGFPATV
Chain of UniProt P00921 (whole entry, looked up): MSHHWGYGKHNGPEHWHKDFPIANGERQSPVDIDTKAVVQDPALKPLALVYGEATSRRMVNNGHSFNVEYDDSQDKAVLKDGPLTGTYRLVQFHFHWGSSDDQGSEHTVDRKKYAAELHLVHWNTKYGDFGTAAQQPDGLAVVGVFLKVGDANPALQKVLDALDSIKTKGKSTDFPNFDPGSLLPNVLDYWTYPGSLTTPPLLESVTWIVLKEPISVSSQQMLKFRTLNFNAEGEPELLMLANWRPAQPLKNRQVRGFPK

`CC[C@H](C)[C@H](NC(=O)[C@H](CCSC)NC(=O)[C@H](CCSC)NC(=O)[C@H](C)NC(=O)[C@H](C)NC(=O)[C@H](Cc1ccc(O)cc1)NC(=O)[C@@H](NC(=O)[C@H](CCCCN)NC(=O)CNC(=O)[C@@H](NC(=O)[C@@H](NC(=O)[C@H](CCSC)NC(=O)[C@H](Cc1c[nH]cn1)NC(=O)CN)[C@@H](C)O)C(C)C)[C@@H](C)CC)C(=O)N[C@@H](C)C(=O)N[C@@H](CCC(=O)O)C(=O)N[C@@H](Cc1ccc(O)cc1)C(=O)N[C@@H](Cc1ccc(O)cc1)C(=O)N[C@@H](CCCNC(=N)N)C(=O)N[C@@H](CCC(N)=O)C(=O)N[C@@H](CO)C(=O)N[C@@H](CCCCN)C(=O)N[C@@H](C)C(=O)N[C@@H](CCCCN)C(=O)N[C@@H](CCCCN)C(=O)N[C@@H](CC(C)C)C(=O)N[C@@H](CCC(N)=O)C(=O)N[C@@H](C)C(=O)N[C@@H](CCSC)C(=O)N[C@@H](CCCNC(=N)N)C(=O)O` gave a stoichiometry of 1.16 ± 0.18 (Calmodulin-1, Ca2+-bound N-lobe (CALM1, Homo sapiens, UniProt P0DP23); binding, isothermal titration calorimetry; pH 7.4, 15 °C, N-lobe, CaV2.1 IQ domain, with: Ca2+).
For `CSCC[C@@H]1NC(=O)[C@H](Cc2ccc(O)cc2)NC(=O)[C@H](Cc2ccc(O)cc2)NC(=O)[C@@H]2CCCN2C(=O)CNC(=O)[C@H](C(C)C)NC(=O)[C@H](Cc2c[nH]cn2)NC(=O)[C@@H](NC(=O)[C@H](C)N)CSSC[C@@H](C(=O)N[C@@H](CO)C(=O)NCC(N)=O)NC(=O)[C@H](C)NC(=O)[C@H](CC(C)C)NC1=O`, “dissociation rate constant” read 0.0003 s⁻¹ (CA2 (Bos taurus, UniProt P00921); surface plasmon resonance; pH 7.4, 25 °C, 2% DMSO, 0.005% Tween-20, 1:1 model).
`Cn1cc(-c2ccc(-c3cncc(Cl)c3N3CCC4(CCNC4=O)CC3)cc2)cn1`: “log2 fold change” 2.02 (COLO 205; gene expression, microarray, refers to: ANXA2 mRNA; concentration not given, 2 h; reference: untreated cells).
Under “log2 fold change”, `CCN1CCC[C@H]1CNC(=O)c1c(O)c(Cl)cc(Cl)c1OC` is recorded as 0.785 (TAAR5 (Homo sapiens, UniProt O14804); β-arrestin recruitment, TANGO luminescence; concentration not given; reference: basal luminescence).
`Cc1ccc(S(=O)(=O)/C=C/C#N)cc1` has an inhibition of 0% (Genome polyprotein NS3 helicase domain; DNA binding, inhibitor; hepatitis C virus; 100 µM, with: Cy5-dT15 DNA).
With `CC(=O)N(CC#Cc1cccc(C(N)=O)c1)C[C@H]1C[C@@H](n2ccc3c(Cl)ncnc32)[C@H](O)[C@@H]1O` the Tagg shift was > 1 °C (7SK snRNA methylphosphate capping enzyme (MEPCE, Homo sapiens, UniProt Q7L2J0); cellular thermal shift; HeLa cell lysate; 50 µM; reference: DMSO).
With `COc1c(C#N)cccc1CC(=O)Nc1ccc2c(c1)CCCN2C(=O)c1ccccc1` the binding was 104% and 103% (WD repeat-containing protein 91, residues 392–747 (Homo sapiens, UniProt A4D1P6); SPR dose-response titration; concentration not given, 1:1 binding model).
The Km of `O=O` is reported as 250 ± 44 µM (HIF1AN (Homo sapiens, UniProt Q9NWT6, E105A); substrate, MALDI-TOF MS; pH 7.00, 37.0 °C, mutant E105A, with: CTAD peptide 80 µM, 2-oxoglutarate 100 µM).
For `O=C(c1ccc(C(=O)N2CCC(N3CCCC3)CC2)c(Nc2ccccc2)c1)N1CCC(N2CCCC2)CC1`, the diffusion coefficient was 0.0503 µm2/s (Lethal(3)malignant brain tumor-like protein 3 (Homo sapiens, UniProt Q96JM7); FRAP; human cells; 0.5 µM).
With `NC(=O)c1nc[nH]c1N` the product formation was -0.88 µM (N-alpha-acetyltransferase 80 (NAA80, Homo sapiens, UniProt Q93015); substrate, DTNB; 2 mM, 30 min, 37 °C, with: acetyl-CoA 500 µM).
`Nc1ncnc2c1c(-c1ccc(Oc3ccccc3)cc1)cn2C1CCCC1` has an inhibition of 2% (Genome polyprotein NS3 helicase domain; DNA binding, inhibitor; hepatitis C virus; 100 µM, with: Cy5-dT15 DNA).
For `CC12CC3CC(C)(C1)CC(N)(C3)C2`, the activation was 6% (Glutamate receptor 2 (Homo sapiens, UniProt P42262); ion current, agonist, SyncroPatch patch clamp; HEK293; 30 µM).
`O=C(O)/C=C/c1ccc(O)c(O)c1` has an inhibition of 0% (Genome polyprotein NS3 helicase domain; DNA binding, inhibitor; hepatitis C virus; 100 µM, with: Cy5-dT15 DNA).
For `Nc1nc2c(ncn2[C@@H]2O[C@H](COP(=O)(O)O)[C@@H](O)[C@H]2O)c(=O)[nH]1`, “ΔG of binding” read -6.21 kcal/mol and -6.14 kcal/mol and -6.08 kcal/mol (GUK1 (Homo sapiens, UniProt Q16774); ITC; concentration not given, with: 150 mM NaCl).
`COCCOCc1ccc(-c2cc3onc(-c4ccccc4)c3c(=O)n2C)cc1` gave an activation of 1.21 fold (Nuclear receptor subfamily 4 group A member 3, ligand-binding domain (Homo sapiens, UniProt Q92570); reporter gene, Gal4 hybrid reporter; 3 µM; reference: vehicle).
`CC(C)C[C@H](NC(=O)C[C@H](O)[C@H](CC(C)C)NC(=O)[C@H](Cc1c[nH]cn1)NC(=O)CNC(=O)[C@@H](NC(=O)[C@H](C)NC(=O)[C@H](Cc1c[nH]c2ccccc12)NC(=O)[C@H](CCC(N)=O)NC(=O)[C@@H](Cc1ccccc1)NC(=O)COCCOCCNC(=O)CCC(C(=O)O)N1CCN(CC(=O)O)CCN(CC(=O)O)CCN(CC(=O)O)CC1)C(C)C)C(N)=O` (stereo partly shown) [lutetium-177 labelled] has a tissue uptake of 0.32 ± 0.03 %ID/g (BALB/c nu/nu mice, female, bone; 50 pmol, 1 h, with: PA 300 µg).
Under “percent of control”, `C1=C/COCc2cc(ccc2OCCN2CCCC2)Nc2nccc(n2)-c2cccc(c2)COC/1` is recorded as 72% (CIT (Homo sapiens, UniProt O14578); concentration not given).
`O=C(c1cc2cccn2cn1)N1CCN(c2ccc([N+](=O)[O-])c3cnccc23)CC1` has a binding of 29% and 11% (WD repeat-containing protein 91, WD40 domain, residues 392–747 (Homo sapiens, UniProt A4D1P6); SPR; 45 µM).
`CC[C@@H]1[C@H](F)C(=O)N[C@@H]1COc1nccc2cc(C(N)=O)c(OC)cc12` has an inhibition of 14.2% (CAMK2D (Homo sapiens, UniProt Q13557); ATP-site probe binding, ActivX profiling; THP-1 cell lysate; 0.01 mM, Lys1 site).
Under “normalised MST signal”, `NCCCCC(=O)O` is recorded as -0.0148 (SLC6A6 (Homo sapiens, UniProt P31641, Y138A); binding, microscale thermophoresis; 1.95 µM, room temperature, with: 50 nM labelled protein; higher = more binding).
Under “fast dissociation fraction”, `CC[C@H](C)[C@@H]1NC(=O)[C@H](C)NC(=O)[C@H]([C@@H](C)CC)NC(=O)[C@H](CCC(N)=O)NC(=O)[C@H](C)NC(=O)[C@H](CCCNC(=N)N)NC(=O)[C@H](C(C)C)NC(=O)[C@H](CC(C)C)NC(=O)[C@H](CCC(=O)O)NC(=O)[C@H](CCCNC(=N)N)NC(=O)CNC(=O)[C@@H](NC(=O)[C@H](CC(C)C)NC(=O)[C@H](CCCCN)NC(=O)[C@@H](NC(=O)[C@@H](NC(=O)[C@H](CCC(=O)O)NC(=O)[C@H](CCC(=O)O)NC(=O)[C@H](CCSC)NC(=O)[C@H](Cc2c[nH]c3ccccc23)NC(=O)[C@H](CO)NC(=O)[C@@H](N)CC(=O)O)C(C)C)[C@@H](C)CC)CSSC[C@@H]2NC(=O)[C@@H](NC(=O)[C@H](CCCCN)NC(=O)[C@H](CC(N)=O)NC(=O)[C@H](C)NC(=O)[C@H](CC(C)C)NC(=O)[C@H](C)NC(=O)[C@H](CO)NC(=O)[C@H](Cc3ccc(O)cc3)NC(=O)[C@H](CC(C)C)NC(=O)[C@H](CCC(N)=O)NC(=O)c3ccc(-c4c5ccc(=[N+](C)C)cc-5oc5cc(N(C)C)ccc45)c(C(=O)[O-])c3)CSSC[C@H](NC(=O)CNC(=O)[C@H](C(C)C)NC(=O)[C@H](Cc3c[nH]cn3)NC2=O)C(=O)N[C@@H]([C@@H](C)O)C(=O)N[C@@H](CCCCN)C(=O)N[C@@H](CCCNC(=N)N)C(=O)N[C@@H](CO)C(=O)N[C@@H](CC(C)C)C(=O)N[C@@H](C)C(=O)N[C@@H](CCCNC(=N)N)C(=O)N[C@@H](Cc2ccccc2)C(=O)N[C@H](C(=O)O)CSSC[C@@H](C(=O)NCC(=O)N[C@@H](CCSC)C(=O)N[C@@H](CO)C(=O)N[C@H](C(=O)N[C@@H](Cc2c[nH]c3ccccc23)C(=O)N[C@@H](CO)C(=O)O)[C@@H](C)O)NC1=O` is recorded as 18.6% (Relaxin receptor 1 (RXFP1, Homo sapiens, UniProt Q9HBX9); binding, NanoBRET; concentration not given, with: relaxin 10 µM).
With `C[N+](C)(C)CCOC(=O)CCC(=O)OCC[N+](C)(C)C` the inhibition was 2% (Genome polyprotein NS3 helicase domain; DNA binding, inhibitor; hepatitis C virus; 100 µM, with: Cy5-dT15 DNA).
With `Cn1cc(-n2cnc3c(NCc4nc5cc(Cl)c(Cl)cc5[nH]4)nc(N4CCOCC4)nc32)cn1` the inhibition was 14.8% (Cyclin-dependent kinase 12, with cyclin K (CDK12, Homo sapiens, UniProt Q9NYV4); kinase activity, inhibitor, ADP-Glo; 0.0082 µM).
With `Cc1nc(N=Nc2ccc(S(=O)(=O)O)cc2S(=O)(=O)O)c(COP(=O)(O)O)c(C=O)c1O` the inhibition was 0% (Genome polyprotein NS3 helicase domain; DNA binding, inhibitor; hepatitis C virus; 100 µM, with: Cy5-dT15 DNA).
`COc1cc(O)ccc1/C=C/C(=O)c1ccc(O)cc1` gave a selectivity ratio of 2.5 (Estrogen receptor (ESR1, Homo sapiens, UniProt P03372); array formation; PRL-HeLa; reference: EC50 ERβ over EC50 ERα).
With `Cc1cccc(N2CC(C(=O)O)CC2=O)c1` (stereo not shown) the fold enrichment was 0.913 (WD repeat-containing protein 91 (Homo sapiens, UniProt A4D1P6); binding, affinity selection mass spectrometry; reference: other proteins in batch).
The maximal inhibition of `CCN1CCCC1CNC(=O)c1cc(S(N)(=O)=O)ccc1OC` (stereo not shown) is reported as 102 ± 1% (DRD3 (Homo sapiens, UniProt P35462); Go activation, antagonist, BRET).
`C=CC(=O)N1CCC(COCC(=O)N2CCN(c3nc(-c4cnc(N)nc4C(F)F)nc(N4CCOC[C@@H]4C)n3)CC2)CC1` has a remaining binding of 91% (SBK3 (Homo sapiens, UniProt P0C264); KINOMEscan; 1 µM).
`Nc1ncnc2c1ncn2[C@@H]1O[C@H](COP(=O)(O)OP(=O)(O)OP(=O)(O)O)[C@@H](O)[C@H]1O` gave a normalized current of 0.00201 and 0 and 0.00984 (P2X purinoceptor 7 (P2rx7, Rattus norvegicus, UniProt Q64663, Q143A/R125A); ion current, agonist, two-electrode voltage clamp; Xenopus laevis oocytes; 6 µM; reference: highest concentration response).
`CC[C@H](C)[C@H](NC(=O)[C@H](C)NC(=O)[C@H](CCSC)NC(=O)[C@H](C)NC(=O)[C@H](C)NC(=O)[C@H](Cc1ccc(O)cc1)NC(=O)[C@@H](NC(=O)[C@H](CCCCN)NC(=O)CNC(=O)[C@@H](NC(=O)[C@@H](NC(=O)[C@H](CCSC)NC(=O)[C@H](Cc1c[nH]cn1)NC(=O)CN)[C@@H](C)O)C(C)C)[C@@H](C)CC)C(=O)N[C@@H](CCSC)C(=O)N[C@@H](CCC(=O)O)C(=O)N[C@@H](Cc1ccc(O)cc1)C(=O)N[C@@H](Cc1ccc(O)cc1)C(=O)N[C@@H](CCCNC(=N)N)C(=O)N[C@@H](CCC(N)=O)C(=O)N[C@@H](CO)C(=O)N[C@@H](CCCCN)C(=O)N[C@@H](C)C(=O)N[C@@H](CCCCN)C(=O)N[C@@H](CCCCN)C(=O)N[C@@H](CC(C)C)C(=O)N[C@@H](CCC(N)=O)C(=O)N[C@@H](C)C(=O)N[C@@H](CCSC)C(=O)N[C@@H](CCCNC(=N)N)C(=O)O` gave a ΔS of 22.1 ± 2.6 cal/mol/K (Calmodulin-1, Ca2+-bound C-lobe (CALM1, Homo sapiens, UniProt P0DP23); binding, isothermal titration calorimetry; pH 7.4, 15 °C, C-lobe, CaV2.1 IQ domain, with: Ca2+).
For `Cc1cc(N)c2ccccc2[n+]1CCCCCCCCCC[n+]1c(C)cc(N)c2ccccc21.[Cl-].[Cl-]`, the inhibition was 2% (Genome polyprotein NS3 helicase domain; DNA binding, inhibitor; hepatitis C virus; 100 µM, with: Cy5-dT15 DNA).
